Assay results pooled from the literature.
Every numbered part comes from another study and shows a few of its results, in no order.

Block 1
Target: RING finger protein unkempt homolog, zinc fingers 1-6, SBP tag (UNK, Homo sapiens, UniProt Q9C0B0, residues 30-357)
UniProt Q9C0B0, sequence (30-357, looked up): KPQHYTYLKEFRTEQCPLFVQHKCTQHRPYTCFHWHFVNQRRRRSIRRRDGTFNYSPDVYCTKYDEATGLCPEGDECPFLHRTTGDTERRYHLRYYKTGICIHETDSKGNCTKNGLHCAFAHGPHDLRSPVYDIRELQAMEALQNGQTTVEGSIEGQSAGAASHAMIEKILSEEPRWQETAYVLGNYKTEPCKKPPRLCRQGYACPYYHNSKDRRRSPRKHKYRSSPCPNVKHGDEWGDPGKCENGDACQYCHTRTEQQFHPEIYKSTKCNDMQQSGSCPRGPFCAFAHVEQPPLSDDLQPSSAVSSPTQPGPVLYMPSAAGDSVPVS
Method: RNA Bind-n-Seq
Molecule type: RNA
Medium: in vitro
Tested at: 100 nM
Notes: RNA with constant flanks, vertebrate orthologous sites, ends assumed
Reference: input RNA pool
Direction: higher = stronger binding
| Sequence | bound/input enrichment |
| --- | --- |
| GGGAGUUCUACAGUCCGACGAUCUGCACUAGUGCUCUUCUAUGGAAGAGAUGAACUGGGGACAGCUAUCUCCUUUUUAUAGAUUACUUUGUUUCUAAAUUAUGACCAAAAUAUUUUGCUAUGUCUUUAUAUGUGAAAUCUUUUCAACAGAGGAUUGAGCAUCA | 0.806 ratio |
| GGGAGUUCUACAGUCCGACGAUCGAAGAUGGUGGUUGUACAUUAUUUCAUUUAGAAAAUAUAAAAUUCAUUUUGUUUUGAAGCUAGGUGUUAAACUGGAAUAGCUAUUAUACCCCCACAGAAUGGGGCAGUUGUGCCCUUCCCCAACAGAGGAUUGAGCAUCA | 1.42 ratio |
| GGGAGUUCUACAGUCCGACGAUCACGCUUCGACGUUAAGAUCACUGUGAACUCAUGACCUCGGCCGCGACGAGCACUUAACACUGAAAGCAACCUAAACCUAGUUAGUAACGAAGAAGUUCUGAUAAACACCACUAGUCUUUGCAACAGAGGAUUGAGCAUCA | 0.358 ratio |
| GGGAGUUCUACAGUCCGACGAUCAAUCAGUAGAAUUACAAAAUACUAAAGUUGCAGUUGAAAGGAUAUCCAAGUAUGUGUUGGUAGUUACUAAAAGAAUUAUAGCUGUUAUUGCCUUGUAUUUAUAGCCCUCGUUUCAGGUUUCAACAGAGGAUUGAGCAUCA | 0.924 ratio |
| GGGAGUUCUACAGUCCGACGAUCCAAGGUGGGACCCGGGACCCACUGCUCAGUGGCCCGCUGGCCACGUCAGCCAAGCCACUUUAGGUCCAUUUUUUAUUUUAACAGUGCUCUUCCAUUCUGUGCAUAAGCCCGAGAUUUGGACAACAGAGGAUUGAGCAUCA | 2.11 ratio |
| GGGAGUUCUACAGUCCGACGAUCUCAUUUUUAAUUUUAAUUUUAUUUUAUACAAUGUGUAGACAGUUCCCUGUUCUCUGCAUUUAGAAGUAUACACAAUAUAAAUCUGUUAAUUCUGUAAGUAAUUUUUAUAAUUAUGAUGUACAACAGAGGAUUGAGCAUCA | 0.696 ratio |
| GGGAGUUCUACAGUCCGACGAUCUACUAGAGUCCUACCAGCCUGCCGGCCCCUCGUCUGUGCACAGCUUCCAACGUUACCGUCUAGCUAGAUUUUUAUUUAAAAUAUGAAAAACUGCUUUUCCCAAGACGUUUUUUAAAAACACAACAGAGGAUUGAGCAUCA | 0.609 ratio |
| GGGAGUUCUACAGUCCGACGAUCGGAAGAGAUUCUUGUGAUUUUUUUUAAUGUUUAAAACAUUUCUUUUAUGAUCUUCCAGUAUGUCAUUUUUGAUGGAACUGGAAUAUUGACACUUCUCACCUAGUCUUUGUAAAGAAUCACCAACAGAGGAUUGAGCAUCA | 0.611 ratio |

Block 2
Target: Ras GTPase-activating protein-binding protein 1, full length (G3BP1, Homo sapiens, UniProt Q13283)
UniProt Q13283, sequence (whole entry, looked up): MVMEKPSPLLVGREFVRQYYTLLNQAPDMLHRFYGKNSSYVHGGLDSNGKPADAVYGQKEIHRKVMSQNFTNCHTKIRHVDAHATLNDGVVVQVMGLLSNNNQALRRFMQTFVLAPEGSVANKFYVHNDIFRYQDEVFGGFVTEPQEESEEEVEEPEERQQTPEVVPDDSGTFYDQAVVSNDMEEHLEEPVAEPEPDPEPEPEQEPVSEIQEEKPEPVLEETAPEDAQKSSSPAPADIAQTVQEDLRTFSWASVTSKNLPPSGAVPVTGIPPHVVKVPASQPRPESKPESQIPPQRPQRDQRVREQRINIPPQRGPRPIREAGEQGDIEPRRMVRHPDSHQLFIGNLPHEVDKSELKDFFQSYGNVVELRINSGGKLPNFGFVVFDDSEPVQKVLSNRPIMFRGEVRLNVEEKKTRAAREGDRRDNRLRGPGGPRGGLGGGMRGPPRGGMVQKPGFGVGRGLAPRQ
Method: RNA Bind-n-Seq
Molecule type: RNA
Medium: in vitro
Tested at: 200 nM
Notes: whole 134-nt RNA, ends assumed
Together with: 150 mM KCl
Reference: input library
Direction: higher = stronger binding
| Sequence | log2 enrichment |
| --- | --- |
| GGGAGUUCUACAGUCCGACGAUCCCUCAAGUCCUGUGCUACACAUCGUAUGUACCGAAUCGGGGAGGAGGGAGGGGAAAGUAUUAUGUUACGCCGUUCGGAUCUGCACUUCCAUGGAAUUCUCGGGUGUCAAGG | 1.35 |
| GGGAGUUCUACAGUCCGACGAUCUCAGGAAGUAAAAACAAAUGGAAAUGCUUCGGAUAGUGGCAGGGGUGGGGGUUGCUAAGGAAAGGGUGGGAUGGGAGUGGGUAAAGAGUUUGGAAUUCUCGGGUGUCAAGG | 0.805 |
| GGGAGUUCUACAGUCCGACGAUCGGUGGACUAUGGUGCAACAGCAGAAGAGCUGGAAGCUCACUUUCAUGGCUGUGGUUCAGUCAACCGUGUUACCAUACUGUGUGACAAAUUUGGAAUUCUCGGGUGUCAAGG | -1.25 |
| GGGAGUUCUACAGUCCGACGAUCUGGGAGGUGGAUUUUGUUUAUUUUUUUAGCUCAUUUCCAGGGGUGGGAAUCUUUUUUUAAUAUGUGUCAUGAAUAAAGUUGUUUUUGAAAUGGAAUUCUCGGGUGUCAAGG | 0.423 |
| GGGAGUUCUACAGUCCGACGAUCUCCUCAAGUCCUGUGCUACACAUCGUAUGUACCGAAUCGGCGGGCGGGGCGGAAAGUAUUAUGUUACGCCGUUCGGAUCUGCACUUCCAGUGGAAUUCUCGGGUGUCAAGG | 0.215 |
| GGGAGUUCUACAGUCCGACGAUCCCUGUGCUACACAUCGUAUGUACCGAAUCGGGCCCCCCCGGCCCCCCCGGCCCCCCCGGGAAAGUAUUAUGUUACGCCGUUCGGAUCUGCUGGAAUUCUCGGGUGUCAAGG | 0.282 |
| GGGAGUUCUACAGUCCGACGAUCUCCUGUGCUACACAUCGUAUGUACCGAAUCGGGGUUUUUGGGGUUUUUGGGGUUUUUGGAAAGUAUUAUGUUACGCCGUUCGGAUCUGCAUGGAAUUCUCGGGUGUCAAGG | 0.0673 |
| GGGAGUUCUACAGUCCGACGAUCUCAAUGCCGGCUAUGCCCUGGCCCCAGCCACCAGUGCCAACGACAGCGAGCAGCAGAGCCUGUCCAGCGAUGCAGACACCCUGUCCCUCAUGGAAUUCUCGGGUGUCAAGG | 0.255 |
| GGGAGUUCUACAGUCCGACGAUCUCAAGUCCUGUGCUACACAUCGUAUGUACCGAAUCGGGGAGGGGAGGGGAGGGGAAAGUAUUAUGUUACGCCGUUCGGAUCUGCACUUCCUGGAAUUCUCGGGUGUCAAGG | 1.55 |

Block 3
Target: RNA binding protein fox-1 homolog 2, RRM domain, GST-SBP tag (RBFOX2, Homo sapiens, UniProt O43251-10, residues 100-194)
Method: RNA Bind-n-Seq
Molecule type: RNA
Medium: in vitro
Tested at: 365 nM
Notes: natural RNA segment, single round, ends assumed
Reference: no-protein control
Direction: higher = stronger binding
Target sequence (chain): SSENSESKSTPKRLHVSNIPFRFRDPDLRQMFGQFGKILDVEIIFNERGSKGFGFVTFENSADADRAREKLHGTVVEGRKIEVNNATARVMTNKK
| Sequence | RBNS enrichment (R) |
| --- | --- |
| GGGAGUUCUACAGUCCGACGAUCUAGCUGCUAGGCAGACUGUUAAGUAUUAGGGGAAAAUUGCUCUUAAAUUUUCCUAGCUGUAAGCUUAAGUCUCCUUUGUAUCCCUCUGUUGGUGGGGAAAGGUGUCUUUCUGGAAUUCUCGGGUGCCAA | 0.868 |
| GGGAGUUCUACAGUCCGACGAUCCAUAAGAGGGAAGUCUUGGAUUUAGUUUUUUUCCAUACCCUUUUGAAAUUUGCAGCUUCUCUAGUUAGAAAUGUAUUUCUUACAGCUUUUUAAGACUUUGUCAUCCGUUCUGGAAUUCUCGGGUGCCAA | 1.07 |
| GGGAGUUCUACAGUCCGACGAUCUGGCUGAAGGAACUUAAGAUGUUCCAGCGAAGGCAGCAUUUGGGCAAGGAGUUUCAGAAGCUAGACAUGUCUGCAAUGAUUCAAAUUUGGUACGAAAGGACUGCCAACCUUGGAAUUCUCGGGUGCCAA | 0.259 |
| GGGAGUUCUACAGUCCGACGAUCUUGUGACCUCUACUUUUUGUCACUAAUAGCCUACAUUCAAGUGCCUGUGUUUUUUCAUCUUGUUUAGGAAUGUUUUGAGAUUAAUGUGCUUAAAAGUCCUACGUGACUGAUGGAAUUCUCGGGUGCCAA | 0.424 |
| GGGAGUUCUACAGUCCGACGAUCAUGAUUGCUCGAUCACUUUAGAUAGUAAGUAGGCUAUUUACAUAAUGAGCUAACCUCAGAGAGAAGCCCUGGAGUCUAAGAUUGUUGUAAAAAUUAAUUUAUUUGUGUUAUGGAAUUCUCGGGUGCCAA | 0.447 |
| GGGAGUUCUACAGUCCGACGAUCAGUCUUGGCCAGCCAACUCUGGGAAUACAGGGGUGAAAGGGGGGAACCAGUGAAAAUGAAAGGAAGUUUCAGUAUUAGAUGCACUUAAGUUAGCCUCCACCACCCUUUCCUGGAAUUCUCGGGUGCCAA | 0.533 |
| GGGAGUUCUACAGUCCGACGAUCUGAAAUAAAACAUAGUUAACUGUGUUUGAUGUGAAAUAAUAGAUUGUGGGUAGAGGUGAGGCCAAAAAAAAGGUUGUGGGGUGGGGGAAAGAAGGUUGCCGCCUCGACUGUGGAAUUCUCGGGUGCCAA | 0.91 |
| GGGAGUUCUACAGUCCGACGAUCCUAUUAUAUUAUGUAGUCCGUUAACACUACUUAAAAGUUUAGGGUUUUCUCUUGGUUGUAGAGUGGCCCAGAAUUGCAUUCUGAAUGAAUAAAGGUUAAAAAAAAAUCCCUGGAAUUCUCGGGUGCCAA | 0.577 |

Block 4
Target: Histone acetyltransferase KAT6A, winged helix 2, GST fusion (KAT6A, Homo sapiens, UniProt Q92794, residues 85-181)
Method: protein binding microarray
Molecule type: double-stranded DNA, one strand shown
Medium: in vitro
Tested at: not given
Notes: 8-mer, flanks averaged, mean of 2 arrays, mostly near background
Reference: not given
Direction: higher = stronger binding
Target sequence (chain): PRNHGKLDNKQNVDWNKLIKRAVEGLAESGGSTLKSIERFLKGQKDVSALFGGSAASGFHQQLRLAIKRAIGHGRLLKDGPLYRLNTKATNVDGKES
| Sequence | E-score |
| --- | --- |
| CATCAACA | 0.0489 |
| CATCCGAC | 0.178 |
| CCTCGAAG | 0.145 |
| GGTACAGA | 0.0408 |
| CAAAAGGC | 0.066 |
| ACGGATTG | 0.0284 |
| AAGGCTGA | -0.0548 |
| AAGTCCAG | 0.0392 |
| GCTAAAGA | 0.155 |
| AGATGCGG | 0.139 |
| AGGAGACC | -0.108 |
| AAATCCAC | 0.0306 |
| GGAATTGA | -0.00234 |
| TACCAAGA | 0.033 |
| GATCACCA | 0.0316 |
| GATCCCAA | 0.0262 |
| ATAATCAC | -0.00954 |
| GCGAAACA | 0.116 |
| CGCATTCA | 0.14 |
| AAGCGTCC | 0.00584 |
| TGATGGCA | -0.131 |
| GCAGACCC | 0.077 |
| CGTGCTCA | 0.125 |

A few entries again (block 4):
| Sequence | E-score |
| --- | --- |
| AAATCCAC | 0.0306 |
| CCTCGAAG | 0.145 |
| CAAAAGGC | 0.066 |
| TACCAAGA | 0.033 |
| GATCACCA | 0.0316 |
| ATAATCAC | -0.00954 |
| CATCCGAC | 0.178 |
| GCGAAACA | 0.116 |
